Assay results of several laboratories.
Values joined by “and” are separate records of one study, mostly repeats; a detail may differ.
Target: Histamine H1 receptor (HRH1, Homo sapiens, UniProt P35367)

CCc1nnc(-c2c(OC)cc(-c3cnc4cc(-c5cnn(C)c5)ccn34)cc2OC)o1  remaining binding (antagonist radioligand, radioligand binding; 10 µM, SafetyScreen44 H1 replicate 2; lower = stronger displacement): 106%
CCO[C@H]1[C@H](O)[C@@H](N)[C@@H](O[C@H]2[C@H](O[C@@H]3O[C@H](CO)[C@@H](O[C@H]4O[C@@H](CN)[C@@H](O)[C@H](O)[C@H]4N)[C@H]3O)[C@@H](O)[C@H](N)C[C@@H]2N)O[C@@H]1CO  specific binding (radioligand binding; 10 µM, 1% DMSO): 3%
CCN(CC)CCOc1ccc(-c2nnn(Cc3ccc(OC)cc3)c2N)cc1  inhibition (radioligand binding; HEK293; 10 µM, safety profiling): 10.8%
COc1ccc(F)cc1S(=O)(=O)Nc1cnc2c(c1)C(=O)NCCO2  inhibition (ligand displacement, radioligand; 10 µM): 4%
Cc1cc(Nc2nc(C[C@@]3(C(=O)O)CCN(Cc4cccc(Cl)c4F)[C@H](C)C3)cc(C)c2F)[nH]n1  inhibition (inhibitor; 10 µM): -1.73%
O=C(O)c1ccc(-c2nc(-c3ccccc3Cl)c3sccn23)cc1  specific binding (radioligand binding, safety screen panel; 10 µM; baseline: control): 111% and 107%
Cc1ccc2c(n1)c(-c1cccc(S(C)(=O)=O)c1)c(C)n2C/C(F)=C/CN  inhibition (ligand displacement, radioligand; 10 µM): 15%
CN[C@@H]1[C@H](O)[C@H](NC)[C@H]2O[C@]3(O)[C@H](O[C@@H]2[C@H]1O)O[C@H](C)C[C@H]3NC(=O)Cc1cc(Cl)ccn1  inhibition (ligand displacement, radioligand; 10 µM): 13%
N[C@H](C(=O)N1CCCC1)C1CCN(c2nccc3c(-c4ncc(Cl)cc4Cl)cccc23)CC1  response (functional response, agonist; 10 µM): 0%
CCOC(=O)[C@](CC)(CCCSCCOCCOCCNC(=O)c1ccc(-c2c3ccc(=N)c(S(=O)(=O)O)c-3oc3c(S(=O)(=O)O)c(N)ccc23)c(C(=O)O)c1)NC(=O)c1ccc(C2CC2)c(Cc2ccc(F)cc2)n1  inhibition (ligand displacement, radioligand; 10 µM): 2%
CS(C)(=O)=Nc1ccc(-c2ccc(-c3nc4cc(O[C@@H]5CO[C@H]6[C@@H]5OC[C@H]6O)[nH]c4cc3F)cc2)cc1  inhibition (calcium signal, antagonist; 10 µM): 35%
C/C(=N\OCCCN1CCCCC1)c1ccc(C(F)(F)F)cc1  inhibition (antagonist, IP-One; 10 µM): 12.6%
Cc1cc(-c2ccc3ccccc3c2)nnc1NCCN1CCN(C)CC1  activity (antagonist; 10000 nM; baseline: control): 0%
Cc1sc2c(c1C)C(c1ccc(Cl)cc1)=NC(CC(=O)OC(C)(C)C)c1nnc(C)n1-2 (centres unmarked)  inhibition (specific binding; 1 µM): -5%

For quick reference, copied from above:
Cc1ccc2c(n1)c(-c1cccc(S(C)(=O)=O)c1)c(C)n2C/C(F)=C/CN  inhibition (ligand displacement, radioligand; 10 µM): 15%
